{"data": "Published values of several laboratories", "method": "steady-state kinetics", "B1": "enzyme C424A (Methanosarcina mazei, UniProt Q8PVB1); chain MSEQRSVPLREHLLALKPCRHGGLIQETSETYGIPENEILDFSANFNPLGSPFDYPENGLNFEDIIKKSCGKLLEYPDNRYVEFREAAARFVGLGVTPQSIVPGNGSTEIVRLVVESVIEKGDKVLLPWPTFGEYEMQCRITGAEPVCPSQEEVNTLPDEVLEEAKILFICNPNNPTGKLRTREELKVLAERCREHKTLLYVDEAFIELSDPSQSVADLPAENNYVFVMRSLTKDFAIPGIRMGFGIAPPAMADILNTARLSWNLGAIANNTGIALLNIEGGIDSPYLKKAREMILKEGETLKAKIDRIRGFEAGEVNVNFILVDVSKFMLNSSELTARLAARGVLVRDCVSFHGLGKNYIRVAVRTEKENDRLIAAIGDVITEWGREQAKNELQHVIEKASEEGIGGRKTCEYYPCHFEGQNATFCFCPFYPCENEKTGGKWIQSSRGGRVWSCVDCHLVHKKEIAQKILDCLMHEGDTDELVKVAWKEVMEPIL", "B2": "RABE1C (Arabidopsis thaliana, UniProt P28186); chain MAAPPARARADYDYLIKLLLIGDSGVGKSCLLLRFSDGSFTTSFITTIGIDFKIRTIELDGKRIKLQIWDTAGQERFRTITTAYYRGAMGILLVYDVTDESSFNNIRNWIRNIEQHASDNVNKILVGNKADMDESKRAVPTAKGQALADEYGIKFFETSAKTNLNVEEVFFSIGRDIKQRLSDTDSRAEPATIKISQTDQAAGAGQATQKSACCGT", "B3": "LYS1 C205S/H96Q/K77M (Saccharomyces cerevisiae, UniProt P38998); chain MAAVTLHLRAETKPLEARAALTPTTVKKLIAKGFKIYVEDSPQSTFNINEYRQAGAIIVPAGSWKTAPRDRIIIGLMEMPETDTFPLVHEHIQFAQCYKDQAGWQNVLMRFIKGHGTLYDLEFLENDQGRRVAAFGFYAGFAGAALGVRDWAFKQTHSDDEDLPAVSPYPNEKALVKDVTKDYKEALATGARKPTVLIIGALGRSGSGAIDLLHKVGIPDANILKWDIKETSRGGPFDEIPQADIFINCIYLSKPIAPFTNMEKLNNPNRRLRTVVDVSADTTNPHNPIPIYTVATVFNKPTVLVPTTAGPKLSVISIDHLPSLLPREASEFFSHDLLPSLELLPQRKTAPVWVRAKKLFDRHCARVKRSSRL", "B4": "ackA (Escherichia coli, UniProt P0A6A3); chain MSSKLVLVLNCGSSSLKFAIIDAVNGEEYLSGLAECFHLPEARIKWKMDGNKQEAALGAGAAHSEALNFIVNTILAQKPELSAQLTAIGHRIVHGGEKYTSSVVIDESVIQGIKDAASFAPLHNPAHLIGIEEALKSFPQLKDKNVAVFDTAFHQTMPEESYLYALPYNLYKEHGIRRYGAHGTSHFYVTQEAAKMLNKPVEELNIITCHLGNGGSVSAIRNGKCVDTSMGLTPLEGLVMGTRSGDIDPAIIFHLHDTLGMSVDAINKLLTKESGLLGLTEVTSDCRYVEDNYATKEDAKRAMDVYCHRLAKYIGAYTALMDGRLDAVVFTGGIGENAAMVRELSLGKLGVLGFEVDHERNLAARFGKSGFINKEGTRPAVVIPTNEELVIAQDASRLTA", "B5": "enzyme (Methylibium petroleiphilum, UniProt A2SI32); chain PFAQIYLIEGRTEEQKRAVIEKVTQAMMEAVGAPKENVRVWIHDVPKENWGIGGVSAKALGR", "B6": "Por W677G (Rattus norvegicus, UniProt P00388); chain GDSHEDTSATMPEAVAEEVSLFSTTDMVLFSLIVGVLTYWFIFRKKKEEIPEFSKIQTTAPPVKESSFVEKMKKTGRNIIVFYGSQTGTAEEFANRLSKDAHRYGMRGMSADPEEYDLADLSSLPEIDKSLVVFCMATYGEGDPTDNAQDFYDWLQETDVDLTGVKFAVFGLGNKTYEHFNAMGKYVDQRLEQLGAQRIFELGLGDDDGNLEEDFITWREQFWPAVCEFFGVEATGEESSIRQYELVVHEDMDVAKVYTGEMGRLKSYENQKPPFDAKNPFLAAVTANRKLNQGTERHLMHLELDISDSKIRYESGDHVAVYPANDSALVNQIGEILGADLDVIMSLNNLDEESNKKHPFPCPTTYRTALTYYLDITNPPRTNVLYELAQYASEPSEQEHLHKMASSSGEGKELYLSWVVEARRHILAILQDYPSLRPPIDHLCELLPRLQARYYSIASSSKVHPNSVHICAVAVEYEAKSGRVNKGVATSWLRAKEPAGENGGRALVPMFVRKSQFRLPFKSTTPVIMVGPGTGIAPFMGFIQERAWLREQGKEVGETLLYYGCRRSDEDYLYREELARFHKDGALTQLNVAFSREQAHKVYVQHLLKRDREHLWKLIHEGGAHIYVCGDARNMAKDVQNTFYDIVAEFGPMEHTQAVDYVKKLMTKGRYSLDVGS", "B7": "enzyme (Lactiplantibacillus plantarum, UniProt Q06115); chain CTAITYQSYNNYFGRNFDYEISYNEMVTITPRKYPLVFRKVENLDHHYAIIGITADVESYPLYYDAMNEKGLCIAGLNFAGYADYKKYDADKVNITPFELIPWLLGQFSSVREVKKNIQKLNLVNINFSEQLPLSPLHWLVADKQESIVIESVKEGLKIYDNPVGVLTNNPNFDYQLFNLNNYRALSNSTPQNSFSEKVDLDSYSRGMGGLGLPGDLSSMSRFVRAAFTKLNSLSMQTESGSVSQFFHILGSVEQQKGLCEVTDGKYEYTIYSSCCDMDKGVYYYRTYDNSQINSVSLNHEHLDTTELISYPLRSEAQYYAVN", "B8": "enzyme (UniProt P0DY30); chain ESPWIGVHFMVYTDKMLDQLAEQLPALSKRGVTHLILEINYHFAYKSHPELAPTNGITVVGAKKFADTARAHHIEIIPQINCLGHQSWKQNNAALLKHYPQFDETPGAYPDNKDIYCRSWCPQHPEVNRVVFALIDELIDAFEAKAFHVGMDEVFLIASEHCERCRGGDPAALFAKAVNDLHGHIVGKRGVQMLMWGDRLLDAEQTGYGKWEASGNGTAPAIDRIPKDIVLCDWHYEKRDRYPSLAVFLDKGFRVWPAGWKKPEAAEAFAAAARGCQNPRLLGYLCTTWGAVEIPNLADWPALLRPIEKIIAP", "note": "Lines come from different studies, so protocols differ. ± marks the error that the study gave.", "chain of UniProt P09546 (whole entry, looked up)": "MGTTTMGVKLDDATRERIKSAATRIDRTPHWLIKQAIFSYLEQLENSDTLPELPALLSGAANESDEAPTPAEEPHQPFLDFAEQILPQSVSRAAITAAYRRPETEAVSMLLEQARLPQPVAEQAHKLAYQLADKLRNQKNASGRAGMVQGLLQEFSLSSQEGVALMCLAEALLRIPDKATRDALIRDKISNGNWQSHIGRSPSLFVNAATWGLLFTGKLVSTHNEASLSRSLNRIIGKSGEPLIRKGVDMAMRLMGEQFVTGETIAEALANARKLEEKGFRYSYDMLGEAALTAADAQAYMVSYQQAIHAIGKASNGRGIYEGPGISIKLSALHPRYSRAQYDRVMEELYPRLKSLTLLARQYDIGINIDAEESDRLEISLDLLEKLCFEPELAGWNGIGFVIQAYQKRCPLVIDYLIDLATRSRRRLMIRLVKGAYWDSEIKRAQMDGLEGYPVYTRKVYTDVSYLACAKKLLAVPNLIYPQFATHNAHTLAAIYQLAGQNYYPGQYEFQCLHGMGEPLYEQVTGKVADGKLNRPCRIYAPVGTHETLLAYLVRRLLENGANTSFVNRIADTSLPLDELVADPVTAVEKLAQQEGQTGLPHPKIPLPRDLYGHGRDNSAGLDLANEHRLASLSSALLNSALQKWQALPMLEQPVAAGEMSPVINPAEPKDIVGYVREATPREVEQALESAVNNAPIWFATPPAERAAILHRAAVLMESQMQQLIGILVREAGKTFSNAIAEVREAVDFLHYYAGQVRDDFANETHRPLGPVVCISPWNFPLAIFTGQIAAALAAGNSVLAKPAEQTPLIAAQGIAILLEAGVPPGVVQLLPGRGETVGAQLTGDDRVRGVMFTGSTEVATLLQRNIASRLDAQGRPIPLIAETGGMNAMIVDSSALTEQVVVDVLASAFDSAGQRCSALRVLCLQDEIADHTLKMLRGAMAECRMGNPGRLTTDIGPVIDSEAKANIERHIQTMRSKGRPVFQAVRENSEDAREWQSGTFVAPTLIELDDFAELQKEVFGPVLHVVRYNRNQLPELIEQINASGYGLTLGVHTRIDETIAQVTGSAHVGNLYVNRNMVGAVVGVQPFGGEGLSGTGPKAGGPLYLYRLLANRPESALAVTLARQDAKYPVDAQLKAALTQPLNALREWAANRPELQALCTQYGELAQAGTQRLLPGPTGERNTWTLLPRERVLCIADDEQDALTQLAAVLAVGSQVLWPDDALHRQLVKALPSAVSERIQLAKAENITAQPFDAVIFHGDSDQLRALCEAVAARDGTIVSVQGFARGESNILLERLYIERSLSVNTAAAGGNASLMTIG", "chain of UniProt C6WFL3 (whole entry, looked up)": "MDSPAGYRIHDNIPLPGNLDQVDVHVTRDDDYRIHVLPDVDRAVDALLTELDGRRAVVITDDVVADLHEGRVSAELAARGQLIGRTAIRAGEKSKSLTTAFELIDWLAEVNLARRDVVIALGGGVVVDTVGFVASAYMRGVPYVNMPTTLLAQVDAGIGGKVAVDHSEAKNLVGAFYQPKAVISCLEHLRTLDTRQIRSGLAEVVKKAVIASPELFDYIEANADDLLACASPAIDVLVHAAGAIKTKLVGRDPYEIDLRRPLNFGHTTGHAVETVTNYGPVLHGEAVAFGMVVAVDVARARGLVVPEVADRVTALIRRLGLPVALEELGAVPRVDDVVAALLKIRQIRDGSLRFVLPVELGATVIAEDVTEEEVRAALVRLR", "chain of UniProt P78804 (whole entry, looked up)": "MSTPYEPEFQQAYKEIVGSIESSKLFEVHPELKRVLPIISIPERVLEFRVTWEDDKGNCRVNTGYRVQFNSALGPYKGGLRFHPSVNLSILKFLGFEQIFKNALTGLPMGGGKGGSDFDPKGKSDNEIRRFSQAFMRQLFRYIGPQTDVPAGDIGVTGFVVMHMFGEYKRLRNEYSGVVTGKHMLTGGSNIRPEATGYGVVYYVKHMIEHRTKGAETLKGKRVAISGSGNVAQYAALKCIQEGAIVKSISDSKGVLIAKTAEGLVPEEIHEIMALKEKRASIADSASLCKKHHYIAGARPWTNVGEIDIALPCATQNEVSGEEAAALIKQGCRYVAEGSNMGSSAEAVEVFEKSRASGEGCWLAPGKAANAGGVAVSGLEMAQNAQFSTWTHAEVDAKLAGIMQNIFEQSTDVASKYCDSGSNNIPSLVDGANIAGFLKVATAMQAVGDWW", "chain of UniProt P00327 (whole entry, looked up)": "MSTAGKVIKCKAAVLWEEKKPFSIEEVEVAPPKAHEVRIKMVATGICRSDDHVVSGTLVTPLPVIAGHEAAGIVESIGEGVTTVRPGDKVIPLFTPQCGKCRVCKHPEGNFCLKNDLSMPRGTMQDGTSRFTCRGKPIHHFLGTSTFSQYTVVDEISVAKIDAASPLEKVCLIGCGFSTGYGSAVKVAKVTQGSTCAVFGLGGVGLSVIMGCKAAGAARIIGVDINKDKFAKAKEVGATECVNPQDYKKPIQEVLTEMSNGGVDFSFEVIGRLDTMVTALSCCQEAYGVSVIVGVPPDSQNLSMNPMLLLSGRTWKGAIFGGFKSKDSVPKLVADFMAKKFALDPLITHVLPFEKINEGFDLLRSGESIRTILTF", "chain of UniProt A0A348FUE1 (whole entry, looked up)": "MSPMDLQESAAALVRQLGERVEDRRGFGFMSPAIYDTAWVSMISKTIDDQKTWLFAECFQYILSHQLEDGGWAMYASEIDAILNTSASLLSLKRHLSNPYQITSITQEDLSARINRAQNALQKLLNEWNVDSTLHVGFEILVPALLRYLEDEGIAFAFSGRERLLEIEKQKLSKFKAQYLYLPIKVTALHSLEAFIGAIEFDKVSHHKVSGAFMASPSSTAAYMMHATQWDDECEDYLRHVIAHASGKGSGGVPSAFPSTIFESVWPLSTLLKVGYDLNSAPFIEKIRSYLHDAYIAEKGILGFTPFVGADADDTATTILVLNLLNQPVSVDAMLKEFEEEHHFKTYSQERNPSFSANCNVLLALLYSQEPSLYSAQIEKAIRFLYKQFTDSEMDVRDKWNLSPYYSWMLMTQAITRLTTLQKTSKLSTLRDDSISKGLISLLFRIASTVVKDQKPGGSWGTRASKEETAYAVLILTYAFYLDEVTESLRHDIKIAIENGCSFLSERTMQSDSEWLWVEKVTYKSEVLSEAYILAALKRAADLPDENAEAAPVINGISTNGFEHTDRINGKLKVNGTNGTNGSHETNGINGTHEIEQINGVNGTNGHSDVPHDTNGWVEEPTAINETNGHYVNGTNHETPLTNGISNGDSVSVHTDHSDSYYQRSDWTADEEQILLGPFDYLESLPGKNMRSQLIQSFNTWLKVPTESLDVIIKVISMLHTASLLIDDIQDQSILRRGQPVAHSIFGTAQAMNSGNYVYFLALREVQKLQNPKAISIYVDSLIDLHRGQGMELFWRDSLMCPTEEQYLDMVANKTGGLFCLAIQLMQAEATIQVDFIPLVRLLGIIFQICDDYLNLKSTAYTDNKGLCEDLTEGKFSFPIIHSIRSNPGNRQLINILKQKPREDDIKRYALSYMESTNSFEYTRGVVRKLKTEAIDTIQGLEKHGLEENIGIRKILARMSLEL", "chain of UniProt P26208 (whole entry, looked up)": "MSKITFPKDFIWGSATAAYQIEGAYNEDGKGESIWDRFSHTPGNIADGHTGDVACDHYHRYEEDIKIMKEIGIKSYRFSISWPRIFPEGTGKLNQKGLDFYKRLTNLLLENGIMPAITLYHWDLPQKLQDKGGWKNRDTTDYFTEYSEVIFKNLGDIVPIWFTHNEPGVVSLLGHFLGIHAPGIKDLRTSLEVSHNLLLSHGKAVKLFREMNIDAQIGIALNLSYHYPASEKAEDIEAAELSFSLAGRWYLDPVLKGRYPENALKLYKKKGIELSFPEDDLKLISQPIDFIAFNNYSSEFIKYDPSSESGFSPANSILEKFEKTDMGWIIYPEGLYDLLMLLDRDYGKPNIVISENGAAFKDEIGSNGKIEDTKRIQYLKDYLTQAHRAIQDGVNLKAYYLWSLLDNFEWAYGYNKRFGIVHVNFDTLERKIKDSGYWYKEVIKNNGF"}
{"Molecule": "enzyme (Actinosynnema mirum, UniProt C6WFL3)", "substrate": "O=C(CO)[C@@H](O)[C@H](O)[C@H](O)[C@H](O)COP(=O)(O)O", "pH": "pH 7.5", "temperature": "28 °C", "kcat": "0.00667 ± 0.000667 s⁻¹"}
{"Molecule": "B1 (enzyme C424A)", "substrate": "Nc1ncnc2c1ncn2[C@@H]1O[C@H](COP(=O)(O)OP(=O)(O)OP(=O)(O)O)[C@@H](O)[C@H]1O", "pH": "pH 8.5", "temperature": "25 °C", "notes": "apparent, anoxic", "with": "L-Thr 10 mM", "kcat": "0.003 ± 0.002 s⁻¹"}
{"Molecule": "putA (Escherichia coli, UniProt P09546)", "substrate": "COC1=C(OC)C(=O)C(CC=C(C)C)=C(C)C1=O", "pH": "pH 7.4", "temperature": "20 °C", "with": "proline 200 mM", "kcat": "3.4 ± 0.2 s⁻¹"}
{"Molecule": "enzyme (Equus caballus, UniProt P00327)", "substrate": "NC(=O)c1ccc[n+]([C@@H]2O[C@H](COP(=O)(O)OP(=O)(O)OC[C@H]3O[C@@H](n4cnc5c(N)ncnc54)[C@H](OP(=O)(O)O)[C@@H]3O)[C@@H](O)[C@H]2O)c1", "pH": "pH 7", "temperature": "30 °C", "notes": "cofactor varied", "kcat": "0.0005 ± 0.0001 s⁻¹"}
{"Molecule": "B2 (RABE1C)", "substrate": "Nc1nc2c(ncn2[C@@H]2O[C@H](COP(=O)(O)OP(=O)(O)OP(=O)(O)O)[C@@H](O)[C@H]2O)c(=O)[nH]1", "pH": "pH 7.5", "temperature": "30 °C", "kcat": "0.029 s⁻¹"}
{"Molecule": "enzyme K123A (Homo sapiens, UniProt Q08623)", "substrate": "O=c1[nH]cc([C@@H]2O[C@H](COP(=O)(O)O)[C@@H](O)[C@H]2O)c(=O)[nH]1", "pH": "pH 7", "temperature": "25 °C", "kcat": "0.128 s⁻¹"}
{"Molecule": "B3 (LYS1 C205S/H96Q/K77M)", "substrate": "NCCCC[C@H](N)C(=O)O", "pH": "pH 7", "temperature": "25 °C", "with": "NADH 0.5 mM", "kcat": "0.16 ± 0.02 s⁻¹"}
{"Molecule": "B4 (ackA)", "substrate": "Nc1ncnc2c1ncn2[C@@H]1O[C@H](COP(=O)(O)OP(=O)(O)OP(=O)(O)O)[C@@H](O)[C@H]1O", "pH": "pH 7.6", "temperature": "25 °C", "with": "acetate", "kcat": "420 ± 190 s⁻¹"}
{"Molecule": "B5 (enzyme)", "substrate": "C/C(=C\\C=C(/O)C(=O)O)C(=O)O", "pH": "pH 7.3", "temperature": "24 °C", "kcat": "107 ± 3 s⁻¹"}
{"Molecule": "bglA (Acetivibrio thermocellus, UniProt P26208)", "substrate": "O=[N+]([O-])c1ccc(O[C@@H]2OC[C@H](O)[C@H](O)[C@H]2O)cc1", "pH": "pH 5.5", "temperature": "60 °C", "kcat": "5.02 ± 0.13 s⁻¹"}
{"Molecule": "enzyme (Talaromyces verruculosus, UniProt A0A348FUE1)", "substrate": "CC(C)=CCOP(=O)(O)OP(=O)(O)O", "pH": "pH 7.5", "notes": "apparent", "with": "150 µM IPP", "kcat": "0.11 ± 0.01 s⁻¹"}
{"Molecule": "B6 (Por W677G)", "substrate": "NC(=O)C1=CN([C@@H]2O[C@H](COP(=O)(O)OP(=O)(O)OC[C@H]3O[C@@H](n4cnc5c(N)ncnc54)[C@H](O)[C@@H]3O)[C@@H](O)[C@H]2O)C=CC1", "with": "cytochrome c", "kcat": "40.2 ± 3.55 s⁻¹"}
{"Molecule": "gdh E198G/N192S/N97F (Bacillus subtilis)", "substrate": "NC(=O)c1ccc[n+]([C@@H]2O[C@H](COP(=O)(O)OP(=O)(O)OC[C@H]3O[C@@H](n4cnc5c(N)ncnc54)[C@H](O)[C@@H]3O)[C@@H](O)[C@H]2O)c1", "pH": "pH 7", "temperature": "50 °C", "kcat": "20.4 ± 0.651 s⁻¹"}
{"Molecule": "enzyme (Schizosaccharomyces pombe, UniProt P78804)", "substrate": "NC(=O)C1=CN([C@@H]2O[C@H](COP(=O)(O)OP(=O)(O)OC[C@H]3O[C@@H](n4cnc5c(N)ncnc54)[C@H](O)[C@@H]3O)[C@@H](O)[C@H]2O)C=CC1", "pH": "pH 7", "temperature": "30 °C", "notes": "apparent", "kcat": "140 ± 4 s⁻¹"}
{"Molecule": "enzyme (UniProt A0A097IUD8)", "substrate": "Nc1ncnc2c1ncn2[C@@H]1O[C@H](COP(=O)(O)OP(=O)(O)O)[C@@H](O)[C@H]1O", "pH": "pH 6", "temperature": "25 °C", "with": "16 mM PEP", "kcat": "33.9 ± 0.4 s⁻¹"}
{"Molecule": "enzyme N248Y/R246H (Arabidopsis thaliana, UniProt O24495)", "substrate": "C[C@@H](O)C(=O)SC[C@H](NC(=O)CC[C@H](N)C(=O)O)C(=O)NCC(=O)O", "pH": "pH 7.2", "temperature": "25 °C", "kcat": "2.1 ± 0.2 s⁻¹"}
{"Molecule": "enzyme (Acinetobacter baumannii, UniProt A0A5P1UDB1)", "substrate": "O=C(O)c1cccc(Cl)c1O", "pH": "pH 7.5", "temperature": "37 °C", "notes": "apparent", "kcat": "0.0123 ± 0.0003 s⁻¹"}
{"Molecule": "B7 (enzyme)", "substrate": "C[C@H](CCC(=O)N[C@@H](Cc1ccccc1)C(=O)O)[C@H]1CC[C@H]2[C@@H]3[C@H](O)C[C@@H]4C[C@H](O)CC[C@]4(C)[C@H]3C[C@H](O)[C@]12C", "pH": "pH 6.2", "temperature": "37 °C", "kcat": "16.1 ± 1.57 s⁻¹"}
{"Molecule": "enzyme (UniProt A0A4R3LQ44)", "substrate": "O=C(O)[C@H](O)[C@@H](O)[C@@H](O)CO", "pH": "pH 7.5", "temperature": "50 °C", "kcat": "32 ± 2 s⁻¹"}
{"Molecule": "B8 (enzyme)", "substrate": "CC(=O)N[C@H]1[C@H](Oc2ccc([N+](=O)[O-])cc2)O[C@H](CO)[C@@H](O[C@@H]2O[C@H](CO)[C@H](O)[C@H](O)[C@H]2O)[C@@H]1O", "pH": "pH 6", "temperature": "50 °C", "kcat": "8.9 ± 0.3 s⁻¹"}
{"note": "For quick reference, copied from above:"}
{"Molecule": "gdh E198G/N192S/N97F (Bacillus subtilis)", "substrate": "NC(=O)c1ccc[n+]([C@@H]2O[C@H](COP(=O)(O)OP(=O)(O)OC[C@H]3O[C@@H](n4cnc5c(N)ncnc54)[C@H](O)[C@@H]3O)[C@@H](O)[C@H]2O)c1", "pH": "pH 7", "temperature": "50 °C", "kcat": "20.4 ± 0.651 s⁻¹"}
{"Molecule": "enzyme (Schizosaccharomyces pombe, UniProt P78804)", "substrate": "NC(=O)C1=CN([C@@H]2O[C@H](COP(=O)(O)OP(=O)(O)OC[C@H]3O[C@@H](n4cnc5c(N)ncnc54)[C@H](O)[C@@H]3O)[C@@H](O)[C@H]2O)C=CC1", "pH": "pH 7", "temperature": "30 °C", "notes": "apparent", "kcat": "140 ± 4 s⁻¹"}
{"Molecule": "enzyme (UniProt A0A097IUD8)", "substrate": "Nc1ncnc2c1ncn2[C@@H]1O[C@H](COP(=O)(O)OP(=O)(O)O)[C@@H](O)[C@H]1O", "pH": "pH 6", "temperature": "25 °C", "with": "16 mM PEP", "kcat": "33.9 ± 0.4 s⁻¹"}
